Experimental data from different studies.
Every numbered part comes from another study and shows a few of its results, in no order.

Study 1
Target: RNA binding protein fox-1 homolog 2, RRM domain, GST-SBP tag (RBFOX2, Homo sapiens, UniProt O43251-10, residues 100-194)
Technique: RNA Bind-n-Seq
Molecule type: RNA
Sample: in vitro
Tested at: 365 nM
Notes: natural RNA segment, single round, ends assumed
Baseline: no-protein control
Direction: higher = stronger binding
Residues (chain): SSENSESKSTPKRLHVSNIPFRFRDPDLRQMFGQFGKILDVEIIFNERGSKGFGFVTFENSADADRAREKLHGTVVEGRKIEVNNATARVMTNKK
Under “RBNS enrichment (R)”, `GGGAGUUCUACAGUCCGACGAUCGCUCGGACAGCACCCUCAGUGCCAGCCAGCCUCUGCCAGACCUCUCUUUCCCUCUUCUCCCCAGCCUCCUCCAGGGCUGCCCAAGGCAGGGUUUCCAGCCAGGCCUCGGGUGGAAUUCUCGGGUGCCAA` is recorded as 0.308.
`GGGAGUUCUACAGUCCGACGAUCCUCUCAUAUUUAAAAACGUAAUCUCUUCUCUUAGAAGUAUAGAUCAUUUUGAAACUUAAUGUACUACUUACUGGUACUCUCCCUAUUAAUAUUUGAAGGACCUCAAUGGAUGGAAUUCUCGGGUGCCAA`: “RBNS enrichment (R)” 0.384.
Under “RBNS enrichment (R)”, `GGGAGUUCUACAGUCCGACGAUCCAUGCCAGUACCUGCCUGGGGGUGGGGGGUGCCUGGCAGCCAUGAAGCAGGCUGAAAGGCAGAGGGGCUCCAGGUCCUGUUUCCAGCUCCCCUCACUGCACAUGGUGAAGUGGAAUUCUCGGGUGCCAA` is recorded as 0.685.
For `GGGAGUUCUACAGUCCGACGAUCUGGCUCAGAGCUCUUGCCCAUGAGCAGAUGUUUACAAGAGAGGAAAAGAUUGCUUGCUACGACUGCAUCAGCGUCUGCACCUGCGUAAGGAGGAAGCUCACUCACUCAAGUGGAAUUCUCGGGUGCCAA`, “RBNS enrichment (R)” read 0.429.
`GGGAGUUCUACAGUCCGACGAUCGUCAAAAGCCCAGAAAGGCAAAAACCCAGCUUUCUUGUUUGGAGAGACAUGGGGCAUGUGUCUGCCAAUAGCCAGUUGUUCUCAGUGUGCACUAUGUAGGUCCCCAUCCAUGGAAUUCUCGGGUGCCAA` — result for “RBNS enrichment (R)”: 1.04.
`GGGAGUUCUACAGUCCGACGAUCUAUUGAGGGCAAUAUUUUACUGCUAGCUUGCAAAAUUAUAAGUGUUUUAAAAAUAAAAUACAUGAAAUAUUUAAAGCUGUUGAGAUGUGUUUACUUGCAUUUAAAACAGUUGGAAUUCUCGGGUGCCAA`: “RBNS enrichment (R)” 1.21.
`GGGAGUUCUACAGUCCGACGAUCAGGCGAGUGCUCUGCCACUGAGUCACGGCCCAGCCCUCUCUCCCUCAUUCUUCUGUUUCCAUACCAAAGGCCAGGAGUGCUUCACUGUGCUGGAGCCAUGGUGUCCUUUGUGGAAUUCUCGGGUGCCAA`: “RBNS enrichment (R)” 0.422.
Under “RBNS enrichment (R)”, `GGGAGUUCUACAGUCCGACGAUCCAAAGUACAUUGUAAAAUAAAGUUGAGCUUAGUUUUUUUUAAAAAAAAAAACAAAGCAACAAAUUAACUAGAUACAGAAUAAUGGAGAACAAGUUGUUAAAACAUUUAAUUGGAAUUCUCGGGUGCCAA` is recorded as 0.472.
`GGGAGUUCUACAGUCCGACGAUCUUGCUGAAGGAAAAAUCGGACUGCAAAUCAUUCCAAGGCCAAACUGCAACUGAGCCACCCACUCCCAAACAGGAAACCCUGGUGAAGGUUCAGGAAGCACGGAGAUUCUCUGGAAUUCUCGGGUGCCAA` — result for “RBNS enrichment (R)”: 0.17.
`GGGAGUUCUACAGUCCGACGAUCGUGGCUCCAGCUGCCCACCAUUCUCACUCUUCUCCUCCCAAGCCACCGGGGUCAGGUCUCUCAUCUUAAGAAGUUCCCUCUAAAAUGAAAGGUUGUGUAAGAGGAAAGCCUGGAAUUCUCGGGUGCCAA`: “RBNS enrichment (R)” 0.653.
`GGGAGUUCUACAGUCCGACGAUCUGGCUGCCCUUCUCAUUUAAGGACAUGAGUUCACUGGAGUAUUACUCAAAAAGUCUGUGGUUCAUUUCCAGUAUUGUGAAUAUUUAGUUUAUGUGGCCGUUUCUUUGUUUUGGAAUUCUCGGGUGCCAA` — result for “RBNS enrichment (R)”: 0.441.
`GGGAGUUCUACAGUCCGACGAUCAUUUUACUCUUCAUUUCAGGGUUUUCUUUUUUUUUUUACCUUCAAAGGUAGACAUUUUGGGAAUCAUAACUGUAUUACUAAACGUGUUUAAUCAAAAUUCAUAGUUGGAUUGGAAUUCUCGGGUGCCAA` — result for “RBNS enrichment (R)”: 0.215.

Study 2
Target: Histone acetyltransferase KAT6A, winged helix 1, GST fusion (KAT6A, Homo sapiens, UniProt Q92794, residues 1-85)
Technique: protein binding microarray
Molecule type: double-stranded DNA, one strand shown
Sample: in vitro
Tested at: not given
Notes: 8-mer, flanks averaged, mean of 2 arrays, mostly near background
Baseline: not given
Direction: higher = stronger binding
Construct (chain): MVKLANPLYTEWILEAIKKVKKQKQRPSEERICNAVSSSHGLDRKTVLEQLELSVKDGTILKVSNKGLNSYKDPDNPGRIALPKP
The E-score of `AAGAAGCA` is reported as -0.0869.
`GGCCATGA` has an E-score of -0.0625.
`AAGGGGCC` has an E-score of -0.093.
The E-score of `AACGCCTT` is reported as 0.166.
`ACTCTTAA` gave an E-score of -0.226.
For `GATACAGA`, the E-score was -0.242.
With `GCGCTCGA` the E-score was 0.276.
`AACGTCGC` has an E-score of 0.0965.
The E-score of `AAATTGCG` is reported as 0.193.
For `ATTGGCTC`, the E-score was -0.262.
With `TCGTACAA` the E-score was 0.0193.
`GGACCCAC` gave an E-score of -0.0565.
For `AGCTTCAG`, the E-score was -0.179.
`CGCAGCTC` gave an E-score of 0.0249.
`ACATCCGC` has an E-score of 0.343.
`CCGAGGGC` gave an E-score of 0.232.

Study 3
Target: Ras GTPase-activating protein-binding protein 1, full length (G3BP1, Homo sapiens, UniProt Q13283)
UniProt Q13283, sequence (whole entry, looked up): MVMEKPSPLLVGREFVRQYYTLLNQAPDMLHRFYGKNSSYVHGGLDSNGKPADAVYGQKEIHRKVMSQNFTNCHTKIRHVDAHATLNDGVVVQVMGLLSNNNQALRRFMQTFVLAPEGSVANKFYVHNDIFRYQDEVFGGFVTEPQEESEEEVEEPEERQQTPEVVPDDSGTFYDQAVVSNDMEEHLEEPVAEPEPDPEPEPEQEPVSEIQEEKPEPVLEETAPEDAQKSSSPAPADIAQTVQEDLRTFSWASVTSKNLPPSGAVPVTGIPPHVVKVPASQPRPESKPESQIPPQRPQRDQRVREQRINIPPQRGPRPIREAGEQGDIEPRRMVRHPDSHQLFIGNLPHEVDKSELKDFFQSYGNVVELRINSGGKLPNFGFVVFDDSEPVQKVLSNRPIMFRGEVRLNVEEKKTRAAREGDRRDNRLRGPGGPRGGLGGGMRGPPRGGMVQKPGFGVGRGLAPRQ
Technique: RNA Bind-n-Seq
Molecule type: RNA
Sample: in vitro
Tested at: 200 nM
Notes: whole 134-nt RNA, ends assumed
Added: 150 mM KCl
Baseline: input library
Direction: higher = stronger binding
`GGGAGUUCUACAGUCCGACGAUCUAACUUUAGAGGAGGAUCUGAAGGAUAUGGCAGUGGACGUGGAUUUGGGGAUGGCUAUAAUGGGUAUGGAGGAGGACCUGGAGGUGGCAAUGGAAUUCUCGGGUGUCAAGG` has a log2 enrichment of 0.385.
`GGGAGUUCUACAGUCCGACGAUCGUCCUGUGCUACACAUCGUAUGUACCGAAUCAAAUUUAAAUUUUUAAAUUUUUUUAAAAAAGUAUUAUGUUACGCCGUUCGGAUCUGCACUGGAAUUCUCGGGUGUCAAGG` has a log2 enrichment of -1.63.
`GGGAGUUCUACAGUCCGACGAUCCACAGACAACACGCACCCACACAGACACACAGGGAAGGGGUUGGGAUGGGGACAGGGUGCACAGCAGGGCGGGGUAGGACCCCAGCCCCUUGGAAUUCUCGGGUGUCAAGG` gave a log2 enrichment of 1.78.
`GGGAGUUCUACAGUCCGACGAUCUCAAGUCCUGUGCUACACAUCGUAUGUACCGAAUCGGGCCGGGGCCGGGCCGGGGAAAGUAUUAUGUUACGCCGUUCGGAUCUGCACUUCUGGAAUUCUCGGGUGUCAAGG` gave a log2 enrichment of 0.275.
`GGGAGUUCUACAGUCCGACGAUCCACAGACAACACGCACUCACACAGACACAGAGGGAAGGGGUUGGGAUGGGGACAGGGUGCACAGCAGGGCGGGGUAGGACCCCAGCCCCUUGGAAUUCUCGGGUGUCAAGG` gave a log2 enrichment of 1.32.
For `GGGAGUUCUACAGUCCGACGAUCUGGGAGGUGGAUUUUGUUUAUUUUUUUAGCUCAUUUCCAGGGGUGGGAAUUUUUUUUUAAUAUGUAUCAUGAAUAAAGUUGUUUUUGAAAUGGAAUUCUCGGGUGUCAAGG`, the log2 enrichment was -0.00157.
For `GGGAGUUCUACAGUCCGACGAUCCCUGUGCUACACAUCGUAUGUACCGAAUCGGCCCCCCCGGGCCCCCCCGGGGCCCCCCCGGAAAGUAUUAUGUUACGCCGUUCGGAUCUGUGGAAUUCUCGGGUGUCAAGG`, the log2 enrichment was -0.387.
`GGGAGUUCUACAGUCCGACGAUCCAAGUCCUGUGCUACACAUCGUAUGUACCGAAUCGGCCCGGGGCCCGGCCCGGGGAAAGUAUUAUGUUACGCCGUUCGGAUCUGCACUUCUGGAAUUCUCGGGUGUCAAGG` has a log2 enrichment of -0.742.
`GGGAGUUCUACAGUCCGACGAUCCAAGUCCUGUGCUACACAUCGUAUGUACCGAAUCGGUUUUUUUGGAAAAAGGUGGAAAGUAUUAUGUUACGCCGUUCGGAUCUGCACUUCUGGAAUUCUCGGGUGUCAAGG` has a log2 enrichment of -0.863.
`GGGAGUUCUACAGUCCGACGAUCCUCAAGUCCUGUGCUACACAUCGUAUGUACCGAAUCGGUUUGGUGGUUUUUGGAAAGUAUUAUGUUACGCCGUUCGGAUCUGCACUUCCAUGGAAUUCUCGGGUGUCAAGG` gave a log2 enrichment of -0.285.

Study 4
Target: Interferon regulatory factor 7, full length, phosphomimetic (IRF7, Homo sapiens, UniProt Q92985, residues 1-503, S101K/S471D/S472D/S475D/S476D/S477D/S483D/S484D/S487D)
UniProt Q92985, sequence (whole entry, unmodified, looked up): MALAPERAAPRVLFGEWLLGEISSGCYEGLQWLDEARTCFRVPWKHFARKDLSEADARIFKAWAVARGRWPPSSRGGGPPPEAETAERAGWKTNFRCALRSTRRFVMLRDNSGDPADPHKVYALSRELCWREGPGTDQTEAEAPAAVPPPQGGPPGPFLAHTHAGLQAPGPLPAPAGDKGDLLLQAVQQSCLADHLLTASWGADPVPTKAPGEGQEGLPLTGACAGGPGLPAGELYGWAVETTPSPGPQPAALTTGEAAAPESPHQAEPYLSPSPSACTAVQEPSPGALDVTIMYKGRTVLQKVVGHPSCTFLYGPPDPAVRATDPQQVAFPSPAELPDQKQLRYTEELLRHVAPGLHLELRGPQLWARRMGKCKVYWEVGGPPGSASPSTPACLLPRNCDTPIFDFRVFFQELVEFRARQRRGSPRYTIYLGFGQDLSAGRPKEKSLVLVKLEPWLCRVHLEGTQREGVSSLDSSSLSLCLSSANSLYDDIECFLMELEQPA
Technique: protein-binding microarray
Molecule type: double-stranded DNA, one strand shown
Sample: in vitro
Tested at: 250 nM
Notes: 60-bp whole probe
Added: salmon DNA 0.4 mg/ml
Baseline: random background probes
Direction: higher = stronger binding
All sequences stand within: GCCTAGCAC … GTCTTGATTCGCTTGACGCTGCTG
`GACGGTATCCTACTGCTTACGTGCTAG` has a log fluorescence of -0.134 z-score.
`GAAGGACTGGGGTTTCGGGACGTGCTA` gave a log fluorescence of 1.14 z-score.
For `TTAGGTATCCGGTTTCGGTTAGTGCTA`, the log fluorescence was 6.9 z-score.
`GACGGTATCGACTTTCGGAACGTGCTA` gave a log fluorescence of 1.88 z-score.
`GACGGTATCAGTATCGGGACGTGCTAG` gave a log fluorescence of -0.175 z-score.
For `TTAGGTATCGGGACTGGGCTAGTGCTA`, the log fluorescence was -0.293 z-score.
The log fluorescence of `GACGGAATCGGTCTCGGGACGTGCTAG` is reported as 0.374 z-score.
`TTAGTTATCAGTTTCGATTAGTGCTAG` has a log fluorescence of 8.62 z-score.
`GTGAGTCCCGAGAATGGTGTGGTGCTA` gave a log fluorescence of -0.66 z-score.
With `GACGATCTCAGTATTGAGACGTGCTAG` the log fluorescence was -0.0559 z-score.
The log fluorescence of `TCAGTTTTTGCTTTCTTACTGTGCTAG` is reported as 1.2 z-score.
`TCATCTCACGCATCTGAAACTGTGCTA` gave a log fluorescence of 0.343 z-score.
With `GTAGGACTGGACTATCGGTTAGTGCTA` the log fluorescence was -0.842 z-score.
For `TAAGGTTTCGGGACTGGGTTAGTGCTA`, the log fluorescence was 3.98 z-score.
For `GACGATTTCAGTATCGAGACGTGCTAG`, the log fluorescence was 0.542 z-score.
For `CTCGCTATGTTGTCCAGGCTGGTGCTA`, the log fluorescence was -0.317 z-score.
With `TCAGTTTCTCCTTTGTAACTGTGCTAG` the log fluorescence was 3.66 z-score.
`GACGAACTGAGTATCGAGACGTGCTAG` gave a log fluorescence of 0.0336 z-score.
The log fluorescence of `TCAGTTTTACAGGTTCTCACTGTGCTA` is reported as 0.337 z-score.
With `TCAGTTTTCAGCTGTTTTACTGTGCTA` the log fluorescence was 0.646 z-score.
`TCATCTCTGGGCTGTGGGACTGTGCTA` gave a log fluorescence of -0.34 z-score.
`TCATATGTCATTTACATACTGTGCTAG` gave a log fluorescence of 0.938 z-score.
For `GACGAGCTGGGGTATCGAGACGTGCTA`, the log fluorescence was -0.702 z-score.
With `AGCAAAAATGATTGGTTGAAGTGCTAG` the log fluorescence was -0.699 z-score.
The log fluorescence of `TCATTTTAATTTTTAACACTGTGCTAG` is reported as 1.83 z-score.

Excerpt of the above (study 2):
For `GATACAGA`, the E-score was -0.242.
`ACTCTTAA` gave an E-score of -0.226.
With `TCGTACAA` the E-score was 0.0193.
The E-score of `AACGCCTT` is reported as 0.166.
For `AGCTTCAG`, the E-score was -0.179.
`ACATCCGC` has an E-score of 0.343.
The E-score of `AAGAAGCA` is reported as -0.0869.
`CGCAGCTC` gave an E-score of 0.0249.
`GGACCCAC` gave an E-score of -0.0565.
